# Measured values pooled from the literature.
# Lines come from different studies, so protocols differ. ± gives the spread as reported.
# PFF0160c E182D: Dihydroorotate dehydrogenase (quinone), mitochondrial (PFF0160c, Plasmodium falciparum, UniProt Q08210, E182D)
# ACHE: Acetylcholinesterase (ACHE, Homo sapiens, UniProt P22303)
# Chain of UniProt D0VWV4 (whole entry, looked up): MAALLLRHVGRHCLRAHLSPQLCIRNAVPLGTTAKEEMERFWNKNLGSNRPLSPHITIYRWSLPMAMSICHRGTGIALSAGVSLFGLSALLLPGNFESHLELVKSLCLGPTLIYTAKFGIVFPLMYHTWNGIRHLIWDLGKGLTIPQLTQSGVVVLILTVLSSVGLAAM
# Chain of UniProt Q007T0 (whole entry, looked up): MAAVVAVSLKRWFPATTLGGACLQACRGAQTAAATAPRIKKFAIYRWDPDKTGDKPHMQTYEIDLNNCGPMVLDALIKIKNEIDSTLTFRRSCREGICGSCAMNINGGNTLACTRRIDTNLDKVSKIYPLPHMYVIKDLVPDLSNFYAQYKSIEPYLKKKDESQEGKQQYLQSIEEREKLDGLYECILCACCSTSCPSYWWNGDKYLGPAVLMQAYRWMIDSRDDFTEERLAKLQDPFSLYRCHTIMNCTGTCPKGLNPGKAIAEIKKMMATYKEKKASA
# Chain of UniProt A5GZW8 (whole entry, looked up): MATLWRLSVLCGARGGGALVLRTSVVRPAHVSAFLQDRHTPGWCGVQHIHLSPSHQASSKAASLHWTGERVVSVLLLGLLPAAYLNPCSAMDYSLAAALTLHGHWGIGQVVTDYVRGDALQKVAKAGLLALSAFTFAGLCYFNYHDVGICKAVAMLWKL
# Chain of UniProt P22303 (whole entry, looked up): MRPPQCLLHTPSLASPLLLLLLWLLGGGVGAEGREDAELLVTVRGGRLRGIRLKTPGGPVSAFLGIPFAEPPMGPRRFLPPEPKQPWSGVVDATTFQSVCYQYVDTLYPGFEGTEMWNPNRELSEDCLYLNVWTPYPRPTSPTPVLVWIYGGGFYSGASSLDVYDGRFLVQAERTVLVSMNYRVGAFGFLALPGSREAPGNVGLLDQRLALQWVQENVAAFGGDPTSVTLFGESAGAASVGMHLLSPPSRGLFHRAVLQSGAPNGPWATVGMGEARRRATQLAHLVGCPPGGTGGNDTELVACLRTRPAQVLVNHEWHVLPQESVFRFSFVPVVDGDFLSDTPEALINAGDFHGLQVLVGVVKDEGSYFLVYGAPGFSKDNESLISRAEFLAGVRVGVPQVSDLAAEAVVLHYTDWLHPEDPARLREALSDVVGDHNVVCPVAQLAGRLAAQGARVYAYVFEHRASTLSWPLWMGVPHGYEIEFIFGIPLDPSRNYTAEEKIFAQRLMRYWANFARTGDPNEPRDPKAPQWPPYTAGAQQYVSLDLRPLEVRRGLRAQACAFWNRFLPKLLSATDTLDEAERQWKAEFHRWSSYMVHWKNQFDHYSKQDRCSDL
# Chain of UniProt P35869 (whole entry, looked up): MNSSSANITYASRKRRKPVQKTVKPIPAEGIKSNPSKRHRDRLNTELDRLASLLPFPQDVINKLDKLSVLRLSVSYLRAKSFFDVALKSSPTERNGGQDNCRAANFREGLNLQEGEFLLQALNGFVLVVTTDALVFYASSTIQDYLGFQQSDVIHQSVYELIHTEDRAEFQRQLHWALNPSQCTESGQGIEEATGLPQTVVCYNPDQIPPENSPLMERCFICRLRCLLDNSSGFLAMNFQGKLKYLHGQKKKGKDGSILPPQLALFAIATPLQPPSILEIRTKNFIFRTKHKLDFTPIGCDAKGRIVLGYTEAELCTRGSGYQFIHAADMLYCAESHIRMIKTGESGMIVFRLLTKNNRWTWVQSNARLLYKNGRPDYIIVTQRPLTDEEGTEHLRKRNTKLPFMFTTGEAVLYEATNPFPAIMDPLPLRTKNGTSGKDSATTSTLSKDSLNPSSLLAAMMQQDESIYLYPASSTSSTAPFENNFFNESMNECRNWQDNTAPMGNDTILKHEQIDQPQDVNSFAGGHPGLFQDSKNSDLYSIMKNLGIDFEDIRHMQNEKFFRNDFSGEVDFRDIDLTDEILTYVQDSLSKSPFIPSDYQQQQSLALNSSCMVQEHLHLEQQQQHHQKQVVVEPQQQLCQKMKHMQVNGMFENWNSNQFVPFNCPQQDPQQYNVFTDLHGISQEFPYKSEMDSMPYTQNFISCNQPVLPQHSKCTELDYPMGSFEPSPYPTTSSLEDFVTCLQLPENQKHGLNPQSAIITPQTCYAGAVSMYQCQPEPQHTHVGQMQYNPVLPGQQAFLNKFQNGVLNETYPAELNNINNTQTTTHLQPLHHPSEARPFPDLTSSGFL
# Chain of UniProt Q99759 (whole entry, looked up): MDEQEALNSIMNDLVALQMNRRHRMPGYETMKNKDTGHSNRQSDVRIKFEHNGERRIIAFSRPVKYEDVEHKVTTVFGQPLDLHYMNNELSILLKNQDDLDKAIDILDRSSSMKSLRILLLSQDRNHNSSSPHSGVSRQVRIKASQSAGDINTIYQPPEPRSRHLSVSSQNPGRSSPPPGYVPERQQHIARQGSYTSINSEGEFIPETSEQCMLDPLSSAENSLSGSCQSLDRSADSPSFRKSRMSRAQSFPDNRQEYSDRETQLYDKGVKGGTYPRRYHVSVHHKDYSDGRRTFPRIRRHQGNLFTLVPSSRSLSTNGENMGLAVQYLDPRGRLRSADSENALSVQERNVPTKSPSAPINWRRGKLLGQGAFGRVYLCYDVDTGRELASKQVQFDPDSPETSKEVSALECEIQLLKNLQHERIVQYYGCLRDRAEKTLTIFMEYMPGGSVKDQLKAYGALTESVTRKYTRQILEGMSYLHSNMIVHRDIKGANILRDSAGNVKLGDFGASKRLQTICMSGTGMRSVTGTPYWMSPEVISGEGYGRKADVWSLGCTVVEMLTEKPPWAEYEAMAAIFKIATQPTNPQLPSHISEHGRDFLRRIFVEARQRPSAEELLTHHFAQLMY
# Chain of UniProt P55060 (whole entry, looked up): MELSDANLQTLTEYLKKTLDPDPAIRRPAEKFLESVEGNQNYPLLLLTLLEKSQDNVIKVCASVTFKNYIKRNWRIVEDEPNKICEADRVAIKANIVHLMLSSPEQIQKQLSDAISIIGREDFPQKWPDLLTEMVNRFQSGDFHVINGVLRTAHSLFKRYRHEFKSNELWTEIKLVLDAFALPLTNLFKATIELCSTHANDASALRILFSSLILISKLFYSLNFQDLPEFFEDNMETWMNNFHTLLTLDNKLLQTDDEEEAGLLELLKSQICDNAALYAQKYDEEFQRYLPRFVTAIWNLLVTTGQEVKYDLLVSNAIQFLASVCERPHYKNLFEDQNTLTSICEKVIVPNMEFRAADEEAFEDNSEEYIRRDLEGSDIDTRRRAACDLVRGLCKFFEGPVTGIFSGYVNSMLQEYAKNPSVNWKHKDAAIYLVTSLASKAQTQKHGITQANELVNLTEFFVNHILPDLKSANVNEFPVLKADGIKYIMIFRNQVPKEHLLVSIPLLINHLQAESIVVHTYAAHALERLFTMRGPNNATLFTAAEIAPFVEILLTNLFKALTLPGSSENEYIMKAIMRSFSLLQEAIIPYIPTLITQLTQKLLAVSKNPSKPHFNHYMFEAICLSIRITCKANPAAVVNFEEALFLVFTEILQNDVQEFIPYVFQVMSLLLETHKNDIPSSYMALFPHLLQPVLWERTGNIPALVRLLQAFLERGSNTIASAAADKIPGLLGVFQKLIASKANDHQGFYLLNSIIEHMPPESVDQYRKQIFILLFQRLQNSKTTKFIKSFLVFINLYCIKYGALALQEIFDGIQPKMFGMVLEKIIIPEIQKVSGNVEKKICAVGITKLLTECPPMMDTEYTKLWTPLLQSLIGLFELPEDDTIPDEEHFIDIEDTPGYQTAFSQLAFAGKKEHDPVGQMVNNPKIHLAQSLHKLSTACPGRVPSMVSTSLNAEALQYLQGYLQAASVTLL
# Chain of UniProt Q8IY17 (whole entry, looked up): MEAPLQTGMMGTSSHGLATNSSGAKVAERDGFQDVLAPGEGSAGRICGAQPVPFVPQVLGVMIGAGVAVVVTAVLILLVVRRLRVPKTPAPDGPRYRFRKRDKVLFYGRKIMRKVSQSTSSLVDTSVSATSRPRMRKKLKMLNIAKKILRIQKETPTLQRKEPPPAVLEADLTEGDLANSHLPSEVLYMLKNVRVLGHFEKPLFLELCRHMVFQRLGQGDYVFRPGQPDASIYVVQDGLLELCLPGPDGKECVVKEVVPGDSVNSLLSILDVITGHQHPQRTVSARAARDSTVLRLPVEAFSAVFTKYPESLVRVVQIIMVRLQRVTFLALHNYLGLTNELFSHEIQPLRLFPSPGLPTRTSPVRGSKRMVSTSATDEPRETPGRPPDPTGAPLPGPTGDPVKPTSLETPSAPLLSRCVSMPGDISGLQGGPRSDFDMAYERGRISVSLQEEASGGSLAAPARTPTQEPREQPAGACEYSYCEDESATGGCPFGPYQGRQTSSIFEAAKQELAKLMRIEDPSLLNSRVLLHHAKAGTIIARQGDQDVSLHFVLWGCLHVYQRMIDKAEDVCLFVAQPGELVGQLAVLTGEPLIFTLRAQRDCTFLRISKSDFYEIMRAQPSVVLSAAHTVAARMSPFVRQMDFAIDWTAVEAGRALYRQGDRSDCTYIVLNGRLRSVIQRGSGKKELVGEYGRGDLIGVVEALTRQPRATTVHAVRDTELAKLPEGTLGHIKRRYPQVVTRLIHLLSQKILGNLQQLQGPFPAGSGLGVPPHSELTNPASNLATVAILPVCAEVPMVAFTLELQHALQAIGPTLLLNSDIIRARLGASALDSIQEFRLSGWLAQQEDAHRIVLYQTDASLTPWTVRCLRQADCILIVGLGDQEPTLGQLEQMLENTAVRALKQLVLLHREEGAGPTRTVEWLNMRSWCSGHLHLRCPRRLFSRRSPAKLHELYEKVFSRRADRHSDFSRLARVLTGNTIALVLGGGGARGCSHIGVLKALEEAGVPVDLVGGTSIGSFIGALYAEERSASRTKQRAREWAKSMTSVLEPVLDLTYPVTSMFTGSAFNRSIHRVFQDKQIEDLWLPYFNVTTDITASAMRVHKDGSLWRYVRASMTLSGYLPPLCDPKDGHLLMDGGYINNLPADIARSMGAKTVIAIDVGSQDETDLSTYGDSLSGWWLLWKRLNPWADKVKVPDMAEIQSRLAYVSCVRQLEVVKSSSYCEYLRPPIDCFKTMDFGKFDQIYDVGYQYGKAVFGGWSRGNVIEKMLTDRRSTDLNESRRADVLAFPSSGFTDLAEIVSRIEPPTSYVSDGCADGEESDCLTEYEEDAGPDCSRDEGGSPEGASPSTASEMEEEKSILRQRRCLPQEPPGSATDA
SMILES,target,test,system,conditions,how to read,endpoint,value
Clc1cc2c(cc1Cl)Oc1cc(Cl)c(Cl)cc1O2,"Uncharacterized protein (Takifugu rubripes, UniProt Q4JHL2)","reporter gene, agonist, dual-luciferase",COS-7,24 h,,EC20,0.00011 ± 5e-05 µM
COc1cc2nccc(Oc3ccc(NC(=O)c4cc5c(n(-c6ccccc6)c4=O)CCCC5=O)nc3)c2cc1OC,"MET (Homo sapiens, UniProt P08581)","cell viability, CellTiter-Glo",Ba/F3 expressing recombinant kinase,,relative to: MET IC50 over AXL IC50,selectivity ratio,> 100
COc1ccc(Nc2nn3c(-c4ccccc4)ccnc3c2C(=O)Nc2ccccc2)cc1,α-amylase isoenzymes,native PAGE densitometry,,1 mg/mL,relative to: untreated enzyme (band absent),abnormal band quantity,25.5 a.u.
CC1CN(Cc2ccc(-c3ccc(C(=O)NCC4CCCO4)cn3)cc2)CC(C)O1.O=C(O)C(F)(F)F.O=C(O)C(F)(F)F (stereo not drawn),PFF0160c E182D,"enzyme activity, DCIP colorimetric",,,relative to: E182D mutant over wild type,IC50 ratio,0.7
O=C(Nc1cccnn1)N1CCC(=Cc2cccc(Oc3ccc(C(F)(F)F)cn3)c2)CC1,"KATP channel, hamster",binding,,"50 µM, together with: [3H]glyburide",,inhibition,3%
[2H]c1c([2H])c([C@]2([2H])CCCN2C(=O)C(C)(C)Oc2ccc3cn[nH]c3c2)c([2H])c([2H])c1C([2H])([2H])[2H],"SRMS (Homo sapiens, UniProt Q9H3Y6)",KINOMEscan,,1 µM,relative to: DMSO control,remaining binding,73%
Oc1ccc(-c2ccc(Cl)cc2)c(Cl)c1,"AHR (Homo sapiens, UniProt P35869)","reporter gene, antagonist",AZ-AHR cells,"24 h, together with: TCDD 4.5 nM",,IC25,18 µM
Cc1cc(-c2ccccc2)nnc1NCCN1CCOCC1,ACHE,,biochemical,concentration not given,,activity class,inactive
c1ccc2c3c(ccc2c1)-c1cccc2cccc-3c12,"Aryl hydrocarbon receptor (Danio rerio, UniProt Q9YGV3)","reporter gene, agonist, luciferase reporter",ZF-4,1111.11 µM,relative to: vehicle control,fold change,16.8
CC(C)[C@@H](O)CC[C@@H](C)[C@H]1CC[C@H]2[C@@H]3CC=C4C[C@@H](O)CC[C@]4(C)[C@H]3CC[C@]12C,"Glutamate NMDA receptor; GRIN1/GRIN2B (GRIN1/GRIN2B, Homo sapiens, UniProt Q05586+Q13224, L655Y)","positive allosteric modulator, two-electrode voltage clamp",Xenopus oocytes expressing GluN1-L655Y,"10 µM, 0.02% cremophor, together with: 100 µM glutamate and glycine",relative to: without compound,current response,153 ± 3.4%
COc1c(Cl)c2c3c(c1OC)-c1cc4c(cc1C[C@@H]3N(C)CC2)OCO4,"ADRA1A (Homo sapiens, UniProt P35348)","calcium flux, antagonist, FLIPR",CHO-K1,together with: norepinephrine,,apparent Kb,1.27 ± 0.12 µM
CN1CCN(c2cc(-c3ccncc3)c(-c3ccc4ccccc4c3)nn2)CC1,"NMUR2 (Homo sapiens, UniProt Q9GZQ4)","agonist, FLIPR",,12.5 µM,,activation,-1.7%
O=C(O[C@H]1C[C@H]2CC[C@@H](C1)[N+]21CCCC1)C(O)(c1ccccc1)c1ccccc1,ACHE,,biochemical,concentration not given,,activity class,inactive
O[C@@H]1CCCC[C@H]1N1CCC(c2ccccc2)CC1 (racemic),"Vesicular acetylcholine transporter (Rattus norvegicus, UniProt Q62666)",,,,relative to: Ki σ1 (human) over Ki VAChT,selectivity ratio,1.6
O=C1c2ccccc2C(=O)C1c1ccccc1,"Bile acid receptor (NR1H4, Homo sapiens, UniProt Q96RI1)",,,concentration not given,,activity,inactive
Cc1cn([C@H]2C[C@H](O)[C@@H](COP(=O)(O)OP(=O)(O)OP(=O)(O)O)O2)c(=O)[nH]c1=O,"DNA polymerase I, Klenow fragment (polA, Escherichia coli, UniProt P00582, C907S/D424A/E710A/L744C)","nucleotide incorporation, substrate, single-turnover rapid quench",,together with: radiolabelled primer-template DNA,,maximum incorporation rate,0.26 ± 0.01 s⁻¹
COc1cc(N)c(Cl)cc1C(=O)NC1CN2CCC1CC2 (stereo not drawn),"MRGPRD (Homo sapiens, UniProt Q8TDS7)","β-arrestin recruitment, TANGO luminescence",,concentration not given,relative to: basal luminescence,log2 fold change,0.007
O=C(c1ccc(Cl)cc1)N1CCN2C(=O)N(OC(=O)N3CCOc4ccccc43)C(=O)C2C1 (stereo not drawn),"Patatin-like phospholipase domain-containing protein 6 (PNPLA6, Homo sapiens, UniProt Q8IY17)","enzyme activity, inhibitor, MS-based ABPP",SW-620 in situ,"10 µM, 2 h, 37 °C","relative to: compound over DMSO, lower = stronger inhibition",median ratio,1.12
C[C@H]1CN(c2n[nH]c3nc(N[C@H]4CC[C@H](NS(=O)(=O)CCC(F)(F)F)CC4)ncc23)CCO1,"Exportin-2 (Homo sapiens, UniProt P55060)","competitor, Kinobeads competition",human cell extract,0.032 µM,relative to: vehicle,relative abundance,0.97
COc1ccc(N2C(=O)N(c3c(C)cccc3Cl)Cc3cnc(Nc4ccc(C5CCN(C)CC5)cc4OC)nc32)nc1,"MAP3K3 (Homo sapiens, UniProt Q99759)","kinase activity, inhibitor",,"0.5 µM, MEKK3",,inhibition,7.43%
C=C(CN(C(=O)c1c(C(F)F)nn(C)c1F)C1CC1)c1ccc(Cl)cc1Cl,"SDHD/SDHC/SDHB (Sus scrofa, UniProt A5GZW8+D0VWV4+Q007T0)","enzyme activity, inhibitor, DCIP reduction",pig,"0.1 µM, together with: DCIP 40 µM",,reaction velocity,0.0104 µM/s
Nc1nc2c(ncn2[C@@H]2O[C@@H]3COP(=O)(O)O[C@H]4[C@@H](O)[C@H](n5cnc6c(=O)[nH]c(N)nc65)O[C@@H]4COP(=O)(O)O[C@H]3[C@H]2O)c(=O)[nH]1,"Cell cycle histidine kinase CckA, R374A; cytoplasmic region (Caulobacter vibrioides, UniProt Q9X688, R374A)",ITC,,together with: AMPPNP 5 mM,,ΔS,22.2 cal/mol/K
O=C(Nc1cccc(CN2CCN(C(=O)c3cccc(Cl)c3)CC2)c1)c1ccco1.O=C(O)C(F)(F)F,PFF0160c E182D,"enzyme activity, DCIP colorimetric",,,relative to: E182D mutant over wild type,IC50 ratio,2.3
Nc1ncnc2c1ncn2[C]1O[C@H](CSCC[C@H](N)C(=O)O)[C](O)[C]1O,"Procathepsin L (CTSL, Homo sapiens, UniProt P07711)","enzyme activity, inhibitor",,"100 µM, together with: substrate Z-FR-AFC",,remaining activity,117%
Nc1ncc(-c2nc(N3CCOCC3)nc(N3CCOCC3)n2)c(C(F)F)n1,"EIF2AK4 (Homo sapiens, UniProt Q9P2K8, S808G)",KINOMEscan,,10 µM,,remaining binding,71%
CN(C)S(=O)(=O)c1ccc(Sc2ccccc2)c(C(=O)N2CCCC(C(N)=O)C2)c1 (stereo not drawn),PFF0160c E182D,"enzyme activity, DCIP colorimetric",,,relative to: E182D mutant over wild type,IC50 ratio,0.7
COc1ncccc1-c1cnn2ccc(N3CCN(C(=O)OC(C)C)CC3)nc12,"Ribosomal protein S6 kinase alpha-5, C-terminal kinase domain (RPS6KA5, Homo sapiens, UniProt O75582)",KINOMEscan binding,,1 µM,relative to: untreated control,remaining binding,67%
